# Published values of several laboratories.
# Parts stem from different laboratories: compare values within a part only. “And” joins repeats or separate records; there may be more than shown. Substitutions count along the parent as printed.
# Chain of UniProt O94804 (whole entry, looked up): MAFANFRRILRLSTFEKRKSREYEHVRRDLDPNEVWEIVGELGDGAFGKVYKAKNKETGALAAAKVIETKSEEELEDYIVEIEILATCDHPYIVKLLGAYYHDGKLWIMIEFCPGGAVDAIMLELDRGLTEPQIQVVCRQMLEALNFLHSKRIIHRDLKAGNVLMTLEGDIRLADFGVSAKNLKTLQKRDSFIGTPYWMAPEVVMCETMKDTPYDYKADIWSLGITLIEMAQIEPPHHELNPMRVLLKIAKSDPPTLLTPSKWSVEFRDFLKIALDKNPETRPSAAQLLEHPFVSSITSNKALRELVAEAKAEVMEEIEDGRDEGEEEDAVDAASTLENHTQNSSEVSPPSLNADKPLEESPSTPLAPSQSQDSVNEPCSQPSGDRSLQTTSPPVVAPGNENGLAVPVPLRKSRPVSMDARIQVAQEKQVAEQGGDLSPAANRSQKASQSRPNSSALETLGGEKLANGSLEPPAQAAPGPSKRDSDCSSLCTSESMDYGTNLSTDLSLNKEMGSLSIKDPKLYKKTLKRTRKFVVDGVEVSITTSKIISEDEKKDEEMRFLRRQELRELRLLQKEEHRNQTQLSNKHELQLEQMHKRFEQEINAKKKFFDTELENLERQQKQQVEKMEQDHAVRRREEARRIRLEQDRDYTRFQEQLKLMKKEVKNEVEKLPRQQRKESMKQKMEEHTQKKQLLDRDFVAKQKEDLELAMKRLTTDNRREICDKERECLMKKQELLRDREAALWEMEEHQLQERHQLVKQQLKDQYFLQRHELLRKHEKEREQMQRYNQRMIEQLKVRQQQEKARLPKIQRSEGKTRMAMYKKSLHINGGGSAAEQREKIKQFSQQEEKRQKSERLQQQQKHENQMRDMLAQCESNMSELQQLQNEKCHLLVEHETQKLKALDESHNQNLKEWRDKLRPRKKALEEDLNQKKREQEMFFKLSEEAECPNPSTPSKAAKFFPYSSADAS
# Chain of UniProt O14920 (whole entry, looked up): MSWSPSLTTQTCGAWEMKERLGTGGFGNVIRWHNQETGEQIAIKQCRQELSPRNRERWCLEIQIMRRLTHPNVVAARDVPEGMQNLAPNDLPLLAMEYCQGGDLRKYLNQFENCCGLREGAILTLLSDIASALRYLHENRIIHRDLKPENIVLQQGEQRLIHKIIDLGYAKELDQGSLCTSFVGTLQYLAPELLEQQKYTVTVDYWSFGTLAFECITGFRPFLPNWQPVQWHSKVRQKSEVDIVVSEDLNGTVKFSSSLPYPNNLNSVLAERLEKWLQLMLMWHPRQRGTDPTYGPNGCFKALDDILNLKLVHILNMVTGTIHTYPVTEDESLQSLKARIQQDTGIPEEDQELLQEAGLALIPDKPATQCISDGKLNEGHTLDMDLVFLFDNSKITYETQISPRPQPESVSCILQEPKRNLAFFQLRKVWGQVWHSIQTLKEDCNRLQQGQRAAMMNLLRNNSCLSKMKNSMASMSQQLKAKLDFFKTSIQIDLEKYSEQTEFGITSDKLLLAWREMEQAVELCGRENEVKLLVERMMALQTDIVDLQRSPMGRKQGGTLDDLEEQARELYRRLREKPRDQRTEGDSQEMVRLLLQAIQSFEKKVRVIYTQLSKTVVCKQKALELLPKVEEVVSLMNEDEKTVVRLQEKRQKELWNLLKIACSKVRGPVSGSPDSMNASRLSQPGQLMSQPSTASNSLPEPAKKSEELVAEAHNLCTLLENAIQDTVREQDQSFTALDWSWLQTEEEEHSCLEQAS
# Chain of UniProt Q9BYP7 (whole entry, looked up): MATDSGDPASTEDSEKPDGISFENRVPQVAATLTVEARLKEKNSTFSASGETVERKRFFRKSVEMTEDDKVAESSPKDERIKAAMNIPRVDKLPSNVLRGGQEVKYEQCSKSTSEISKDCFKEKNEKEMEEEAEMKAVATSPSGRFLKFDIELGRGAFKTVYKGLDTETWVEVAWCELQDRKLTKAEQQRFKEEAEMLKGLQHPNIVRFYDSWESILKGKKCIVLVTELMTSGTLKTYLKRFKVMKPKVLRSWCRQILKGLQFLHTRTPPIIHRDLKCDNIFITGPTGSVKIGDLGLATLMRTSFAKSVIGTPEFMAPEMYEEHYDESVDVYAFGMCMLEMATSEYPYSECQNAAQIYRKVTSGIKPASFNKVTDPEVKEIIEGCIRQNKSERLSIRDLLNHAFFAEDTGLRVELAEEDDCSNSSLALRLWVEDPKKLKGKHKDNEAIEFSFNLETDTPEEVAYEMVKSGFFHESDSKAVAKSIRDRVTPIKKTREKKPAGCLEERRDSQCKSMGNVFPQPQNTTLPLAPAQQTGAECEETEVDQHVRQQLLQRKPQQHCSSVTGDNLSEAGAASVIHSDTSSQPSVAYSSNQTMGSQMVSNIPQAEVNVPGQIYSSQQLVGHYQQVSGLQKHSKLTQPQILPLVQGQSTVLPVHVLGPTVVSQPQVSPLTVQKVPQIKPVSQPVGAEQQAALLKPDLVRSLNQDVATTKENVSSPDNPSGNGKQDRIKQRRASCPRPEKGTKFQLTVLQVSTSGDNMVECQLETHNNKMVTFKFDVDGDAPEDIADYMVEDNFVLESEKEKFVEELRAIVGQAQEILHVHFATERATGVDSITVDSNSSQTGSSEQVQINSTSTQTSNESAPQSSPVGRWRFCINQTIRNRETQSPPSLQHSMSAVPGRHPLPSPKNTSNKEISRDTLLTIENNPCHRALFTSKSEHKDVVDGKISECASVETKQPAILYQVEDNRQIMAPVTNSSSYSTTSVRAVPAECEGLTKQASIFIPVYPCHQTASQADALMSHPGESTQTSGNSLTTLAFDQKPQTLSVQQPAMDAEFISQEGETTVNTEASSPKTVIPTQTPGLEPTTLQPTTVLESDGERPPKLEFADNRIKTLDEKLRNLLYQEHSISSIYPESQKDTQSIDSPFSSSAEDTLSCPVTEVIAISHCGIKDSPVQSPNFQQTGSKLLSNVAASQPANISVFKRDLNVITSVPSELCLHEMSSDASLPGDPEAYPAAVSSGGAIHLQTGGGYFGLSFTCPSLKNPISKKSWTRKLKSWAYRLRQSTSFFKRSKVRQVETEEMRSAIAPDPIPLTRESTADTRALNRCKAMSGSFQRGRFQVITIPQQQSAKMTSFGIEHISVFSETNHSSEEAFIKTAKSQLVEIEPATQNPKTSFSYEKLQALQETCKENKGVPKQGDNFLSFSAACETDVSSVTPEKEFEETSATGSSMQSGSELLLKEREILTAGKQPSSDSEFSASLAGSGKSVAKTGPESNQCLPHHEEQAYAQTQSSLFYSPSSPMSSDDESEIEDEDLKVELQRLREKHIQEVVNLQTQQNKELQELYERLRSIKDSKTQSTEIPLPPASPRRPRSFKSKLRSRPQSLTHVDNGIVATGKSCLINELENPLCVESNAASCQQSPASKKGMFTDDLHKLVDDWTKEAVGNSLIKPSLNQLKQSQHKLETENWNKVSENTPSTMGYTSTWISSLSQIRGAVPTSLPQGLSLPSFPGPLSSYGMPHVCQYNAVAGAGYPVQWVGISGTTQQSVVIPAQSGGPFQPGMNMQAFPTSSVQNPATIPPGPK
# Chain of UniProt Q99759 (whole entry, looked up): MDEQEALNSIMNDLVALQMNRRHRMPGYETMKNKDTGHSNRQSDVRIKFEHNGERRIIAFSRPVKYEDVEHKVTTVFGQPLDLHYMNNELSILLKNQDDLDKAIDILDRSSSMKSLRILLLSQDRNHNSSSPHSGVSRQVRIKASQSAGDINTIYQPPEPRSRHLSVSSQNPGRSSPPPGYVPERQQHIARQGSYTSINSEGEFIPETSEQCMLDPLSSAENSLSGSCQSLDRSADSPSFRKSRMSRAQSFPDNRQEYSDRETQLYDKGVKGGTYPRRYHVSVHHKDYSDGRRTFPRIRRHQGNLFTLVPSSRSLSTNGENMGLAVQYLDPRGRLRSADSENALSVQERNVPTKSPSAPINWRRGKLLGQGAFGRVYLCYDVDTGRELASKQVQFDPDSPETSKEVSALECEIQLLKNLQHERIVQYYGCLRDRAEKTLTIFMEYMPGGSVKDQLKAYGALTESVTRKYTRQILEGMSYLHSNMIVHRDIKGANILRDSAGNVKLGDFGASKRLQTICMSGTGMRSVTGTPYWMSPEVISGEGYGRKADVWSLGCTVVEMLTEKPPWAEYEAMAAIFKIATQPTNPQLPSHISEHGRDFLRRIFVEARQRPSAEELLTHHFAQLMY
# Chain of UniProt Q96RR4 (whole entry, looked up): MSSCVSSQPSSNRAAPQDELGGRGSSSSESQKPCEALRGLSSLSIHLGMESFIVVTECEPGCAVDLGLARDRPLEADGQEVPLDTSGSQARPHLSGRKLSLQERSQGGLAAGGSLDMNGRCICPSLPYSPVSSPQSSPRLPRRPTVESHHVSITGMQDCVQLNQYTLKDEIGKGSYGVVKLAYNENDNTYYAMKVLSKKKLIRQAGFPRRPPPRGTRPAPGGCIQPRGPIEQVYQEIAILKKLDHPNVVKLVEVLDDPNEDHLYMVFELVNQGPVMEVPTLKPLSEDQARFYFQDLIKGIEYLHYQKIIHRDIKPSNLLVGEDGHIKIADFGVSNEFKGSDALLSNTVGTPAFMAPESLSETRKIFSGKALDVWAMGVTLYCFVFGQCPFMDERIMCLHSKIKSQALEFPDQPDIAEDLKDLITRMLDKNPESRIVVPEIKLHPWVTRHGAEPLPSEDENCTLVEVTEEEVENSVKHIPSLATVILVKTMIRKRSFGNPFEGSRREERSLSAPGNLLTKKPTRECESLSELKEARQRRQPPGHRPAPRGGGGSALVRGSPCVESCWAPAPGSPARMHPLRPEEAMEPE
# Chain of UniProt Q00535 (whole entry, looked up): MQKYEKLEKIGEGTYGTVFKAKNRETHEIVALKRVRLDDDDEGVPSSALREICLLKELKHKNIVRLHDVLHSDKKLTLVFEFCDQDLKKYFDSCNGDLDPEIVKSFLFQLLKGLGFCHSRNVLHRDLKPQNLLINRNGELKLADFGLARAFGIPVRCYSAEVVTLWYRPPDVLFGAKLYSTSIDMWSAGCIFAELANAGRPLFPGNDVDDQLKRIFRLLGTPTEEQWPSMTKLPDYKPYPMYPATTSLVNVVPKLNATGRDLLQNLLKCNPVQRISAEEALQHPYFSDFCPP

# Block 1 — technique: protein-binding microarray; form: double-stranded DNA, one strand shown; medium: in vitro; tested at: not given; reading: higher = stronger binding
# Target: Max dimerization protein 1, bHLH-zipper, MAX partner unstated (MXD1, Homo sapiens, UniProt Q05195, residues 56-136)
# Notes: k-mer, scored over probes, only values ≥0.25
# Construct (chain): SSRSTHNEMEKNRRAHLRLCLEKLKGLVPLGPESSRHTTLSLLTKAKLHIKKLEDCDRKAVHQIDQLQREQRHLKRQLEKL
Strand,E-score
CGTCACGC,0.283
CGTGGAAC,0.252
ACGTGCAC,0.346
AATCCACG,0.28
GCATCCGC,0.254
CATGTGAG,0.434
AGGCACGC,0.319
ACGTTGTC,0.327

# Block 2 — observed: enzyme activity; action: inhibitor; tested at: 0.5 µM; baseline: control
# Structure (SMILES): CN(C)C[C@H]1CCn2c(c(C3=C(c4cn(C)c5ccccc45)C(=O)NC3=O)c3ccccc32)C1
target,remaining activity [%]
"TGFBR2 (Homo sapiens, UniProt P37173)",98.5
"DAPK2 (Homo sapiens, UniProt Q9UIK4)",90.4
"GRK3 (Homo sapiens, UniProt P35626)",102
"OXSR1 (Homo sapiens, UniProt O95747)",98.4
"Cyclin-dependent kinase 5, with p25 (CDK5, Homo sapiens, UniProt Q00535)",84.7
"IKBKE (Homo sapiens, UniProt Q14164)",78.8
"Protein kinase C beta type, isoform beta-I (PRKCB, Homo sapiens, UniProt P05771)",3.71
"CHEK2 (Homo sapiens, UniProt O96017)",95
"TGFBR1 (Homo sapiens, UniProt P36897)",99.8
"STK10 (Homo sapiens, UniProt O94804)",26.6
"IKBKB (Homo sapiens, UniProt O14920)",105
"STK39 (Homo sapiens, UniProt Q9UEW8)",102
"cGMP-dependent protein kinase 1, isoform beta (PRKG1, Homo sapiens, UniProt Q13976)",88.8
"Cyclin-dependent kinase 4, with cyclin D1 (CDK4, Homo sapiens, UniProt P11802)",86.9
"Tyrosine-protein kinase Lyn, isoform B (LYN, Homo sapiens, UniProt P07948)",98.3
"MAPK9 (Homo sapiens, UniProt P45984)",105
"PRKACA (Homo sapiens, UniProt P17612)",87.2
"DAPK1 (Homo sapiens, UniProt P53355)",94.1
"MAP3K3 (Homo sapiens, UniProt Q99759)",86.1
"CAMKK2 (Homo sapiens, UniProt Q96RR4)",108
"CAMK2D (Homo sapiens, UniProt Q13557)",82.4
"NEK2 (Homo sapiens, UniProt P51955)",106

# Block 3 — target: FOSL2, bZIP domain (human); technique: DHFR protein complementation; medium: yeast; baseline: wild-type JUN-FOS pair; reading: higher = stronger binding
# Notes: single substitutions, most at no-binding floor
# Starting sequence: JUN, bZIP domain (human); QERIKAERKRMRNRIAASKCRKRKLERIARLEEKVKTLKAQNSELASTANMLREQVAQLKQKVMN; partner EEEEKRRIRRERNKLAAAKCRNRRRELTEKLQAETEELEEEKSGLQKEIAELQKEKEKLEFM
Variant,binding fitness [natural log]
K36G,-0.0263
M51K,0.0817
T37M,0.337
L59P,-1.42
L38V,-0.636
E32Q,-0.0442
L31Q,-0.221
E32F,-0.26

# Block 4 — technique: competition with immobilised ligand; tested at: 1 µM
# Structure (SMILES): C[C@@]1(Cc2ccc(C#N)cc2)C(=O)N(c2cc(Cl)cc(Cl)c2)c2ncc(C(=O)NC3(c4nc(C5CCC5)no4)CC3)n21
target,observed,remaining binding [%]
"LIM domain kinase 2 (LIMK2, Homo sapiens, UniProt P53671)",cell-free assay,100
"WNK3 (Homo sapiens, UniProt Q9BYP7)",cell-free assay,100
"EGFR (Homo sapiens, UniProt P00533, del746-750)",cell-free assay,97
"STK10 (Homo sapiens, UniProt O94804)",cell-free assay,100
"TXK (Homo sapiens, UniProt P42681)",binding,100

# Other studies, line by line — organism: Leishmania donovani
Compound,assay,system,conditions,inhibition
C[C@@H]1[C@H](O)[C@@H](C)/C=C/C=C/C=C/C=C/C=C/C=C/C=C/[C@H](O[C@@H]2O[C@H](C)[C@@H](O)[C@H](N)[C@@H]2O)C[C@@H]2O[C@](O)(C[C@@H](O)C[C@@H](O)[C@H](O)CC[C@@H](O)C[C@@H](O)CC(=O)O[C@H]1C)C[C@H](O)[C@H]2C(=O)O,"parasite growth, imaging",THP-1,"2 nM, intracellular, amastigote",0%
c1ccc(Oc2ccc(Nc3c4c(nc5ccccc35)CCC4)cc2)cc1,parasite killing,"DD8, promastigotes","66.66 µM, 72 h",100% and 99%

# A few entries again (block 2):
target,remaining activity [%]
"PRKACA (Homo sapiens, UniProt P17612)",87.2
"DAPK1 (Homo sapiens, UniProt P53355)",94.1
"MAP3K3 (Homo sapiens, UniProt Q99759)",86.1
